# Published values collected from several papers.
# Compare with care: the assays were run in different laboratories. ± marks the error that the study gave.
# Target: Cathepsin B (CTSB, Homo sapiens, UniProt P07858)
Structure (SMILES),test,conditions,scale,quantity,result
COc1cccc(OC)c1-c1cc(C(=O)NC2(C(=O)O)C3CC4CC(C3)CC2C4)nn1-c1ccc(C(=O)NCCNC(=O)[C@H](CCCCNC(=O)[C@H](CC(C)C)NC(=O)C2OC2C(=O)O)NC(=O)CN2CCN(CC(=O)O)CCN(CC(=O)O)CCN(CC(=O)O)CC2)cc1C(C)C (mixture of isomers),"enzyme activity, inhibitor, fluorescence",pH 6,,kinact/KI,18000 M⁻¹ s⁻¹
Cc1ccc(C[C@H](NC(=O)CN2CCCc3cc4cc(C(=O)NCCNC(=O)CCCC[C@@H]5SC[C@@H]6NC(=O)N[C@@H]65)c(=O)oc4cc32)C(=O)NC/C=C/S(=O)(=O)c2ccccc2)cc1,inhibitor,"5 µM, 60 min, added: Z-Arg-Arg-pNA",reference: uninhibited control,remaining activity,38%
COc1cccc(OC)c1-c1cc(C(=O)NC2(C(=O)O)C3CC4CC(C3)CC2C4)nn1-c1ccc(C(=O)N(C)CCOCCOCCN(C)C(=O)[C@H](CCCCNC(=O)[C@H](CC(C)C)NC(=O)C2OC2C(=O)O)NC(=O)CN2CCN(CC(=O)[O-])CCN(CC(=O)[O-])CCN(CC(=O)[O-])CC2)cc1C(C)C.[Lu+3] (mixture of isomers),"enzyme activity, inhibitor","pH 6.0, 37 °C, added: Z-Arg-Arg-AMC 800 µM",,kinact/KI,32000 ± 7000 M⁻¹ s⁻¹
CC(C)(C)OC(=O)NC(Cc1cccc(Cl)c1)C(=O)NCC=CS(=O)(=O)c1ccccc1 (centres unmarked),inhibitor,added: Z-Arg-Arg-pNA,,kinact/Ki,580 M⁻¹ s⁻¹
C[C@](C(=O)NC1CCOCC1)(c1cncnc1)N(C(=O)[C@H](F)Cl)c1ccc(OC(F)(F)Cl)cc1,"enzyme activity, inhibitor",10 µM,,remaining activity,107%
COC(=O)c1cc2cc3c(cc2oc1=O)N(CC(=O)NC(Cc1cccc(Cl)c1)C(=O)NCC=CS(=O)(=O)c1ccccc1)CCC3 (centres unmarked),inhibitor,added: Z-Arg-Arg-pNA,,kinact/Ki,881 M⁻¹ s⁻¹
Cc1ccc(CNC(=O)[C@H](CCc2ccccc2)NC(=O)[C@H](CC(=O)NCC(C)(C)C)NC(=O)CCc2cccc(F)c2)cc1,"enzyme activity, inhibitor",100 µM,,inhibition,-13%
O=C(NCCCCc1ccccc1)n1c(=O)oc2cc(-c3ccc(F)cc3)ccc21,"enzyme activity, inhibitor",10 µM,,inhibition,9.9%
Cc1ccc(CNC(=O)C(CCc2ccccc2)NC(=O)C(NC(=O)c2ccc(OCc3ccc(C(C)(C)C)cc3)cc2)C(C)O)cc1 (centres unmarked),"enzyme activity, inhibitor",100 µM,,inhibition,20%
CC(=O)OCC1=C2C(C)=CC(C)=[N+]2[B-](C)(C)n2c(C)cc(C)c21,,,reference: light over dark,kinact/KI ratio,0.83
C=CCNC(=O)[C@H](CCc1ccccc1)NC(=O)[C@H](CC(=O)NCC(C)(C)C)NC(=O)CCc1ccccc1,"enzyme activity, inhibitor",100 µM,,inhibition,-6%
N=C(N)NCCCC(NC(=O)C(CC(=O)NO)Cc1ccc2ccccc2c1)C(=O)NC(Cc1c[nH]c2ccccc12)C(=O)NC(CCC(=O)O)C(N)=O (centres unmarked),,1 µM,,inhibition,4%
C[C@H](NC(=O)[C@H](CC(=O)NCC(C)(C)C)NC(=O)C(=O)c1c[nH]c2ccccc12)C(=O)NCc1ccc(F)cc1F,"enzyme activity, inhibitor",100 µM,,inhibition,17%
COC(=O)CN1CCCc2cc3cc(C(=O)NC(Cc4cccc(Cl)c4)C(=O)NCC=CS(=O)(=O)c4ccccc4)c(=O)oc3cc21 (centres unmarked),inhibitor,"5 µM, 60 min, added: Z-Arg-Arg-pNA",reference: uninhibited control,remaining activity,32%
